Measurements pooled from the literature.
Lines come from different studies, so protocols differ. Values joined by “and” are separate records of one study, mostly repeats; a detail may differ. Numbers after ± are the reported error. Values after ≈ are worked out from the molar mass of the structure shown.

Substance	assay	test system	conditions	how to read	measurement	result
O=c1[nH]c(Cc2ccccn2)nc2c1cnn2C1CCOCC1	–	healthy men, extensive metabolizers, plasma	oral, 50 mg single dose, tablet, median	–	Tmax	37.8 min
CN[C@@](C)(C[18F])C(=O)O	–	SCID mouse A549 xenograft, brain	30 min, post injection	–	tissue uptake	0.4 ± 0.1 %ID/g
Cc1sc2c(c1C)C(c1ccc(Cl)cc1)=N[C@@H](CC(=O)OC(C)(C)C)c1nnc(C)n1-2	LC-MS	Ringer's solution with 10% β-cyclodextrin	50 ng/mL, time not given, glass vessel, low-bind vial	–	recovery vs nominal	95.8% and 94.5%
CC(C)C[C@H](NC(=O)[C@H](CCC(=O)O)NC(=O)[C@H](CCC(=O)O)NC(=O)[C@H](CC(=O)O)NC(=O)[C@H](CCC(=O)O)NC(=O)[C@H](CCC(=O)O)NC(=O)[C@H](CCC(=O)O)NC(=O)[C@@H](N)CC(=O)O)C(=O)O	–	rat, CSF	intranasal, 5.5 mg/kg, 150 min	–	concentration	0.704 ng/mL
Cc1ccc(-c2ncc(Cl)cc2-c2ccc(S(C)(=O)=O)cc2)cn1	–	hip replacement patients	oral, 120 mg, 1.5 h	baseline: CSF over plasma	tissue/plasma ratio	0.097
CCCCCCCCCCCCCCCCCC[N+](C)(C)CCCCCCCCCCCCCCCCCC	substrate depletion	human liver microsomes	0.5 µM, 0 to 3 h, 37 °C, together with: NADPH	–	intrinsic clearance	0.118 mL/h/mg protein
CC[C@H](C)[C@H](NC(=O)[C@H](C)NC(=O)[C@H](CCCCN)NC(=O)[C@H](CC(C)C)NC(=O)[C@H](C)NC(=O)[C@@H](NC(=O)[C@H](Cc1c[nH]cn1)NC(=O)[C@H](CC(C)C)NC(=O)[C@@H](NC(=O)[C@@H](NC(=O)[C@H](CCCCN)NC(=O)[C@H](CCCCN)NC(=O)[C@H](C)NC(=O)[C@H](CO)NC(=O)[C@H](CCCCN)NC(=O)[C@H](Cc1ccccc1)NC(=O)[C@@H](NC(=O)[C@H](CCCCN)NC(=O)[C@H](CC(C)C)NC(=O)[C@H](Cc1ccccc1)NC(=O)[C@H](CO)NC(=O)[C@H](CCCCN)NC(=O)[C@H](Cc1c[nH]c2ccccc12)NC(=O)[C@H](CCCCN)NC(C)=O)[C@@H](C)O)[C@@H](C)O)C(C)C)[C@@H](C)O)C(=O)N[C@@H](CO)C(=O)N[C@@H](CO)C(N)=O	circular dichroism at 222 nm	KCl phosphate buffer	75 µM, pH 7.4, 65 °C	–	mean residue ellipticity	-4050 deg cm² dmol⁻¹
CSCC[C@@H]1NC(=O)[C@H](CC(=O)O)NC(=O)CNC(=O)[C@H](CCCNC(=N)N)NC(=O)[C@H](C)NC(=O)[C@H](CCC(=O)O)NC(=O)[C@H](CCCNC(=N)N)NC(=O)[C@@H]2CSSC[C@@H]3NC(=O)[C@H](CO)NC(=O)[C@H]([C@@H](C)O)NC(=O)[C@@H]4CCCN4C(=O)[C@H](C)NC(=O)[C@H](Cc4c[nH]c5ccccc45)NC(=O)[C@H](CC(=O)O)NC(=O)CNC(=O)[C@H](CCCNC(=N)N)NC(=O)CNC(=O)[C@H](CCC(N)=O)NC(=O)[C@@H]4CCCN4C(=O)[C@@H](NC(=O)CNC(=O)C(C)F)CSSC[C@H](NC(=O)CNC(=O)[C@H](C)NC(=O)[C@H](CC(C)C)NC(=O)[C@H](CSSC[C@@H](C(=O)NCC(N)=O)NC(=O)[C@H]([C@@H](C)O)NC(=O)[C@H](CCCNC(=N)N)NC(=O)[C@@H]4CCCN4C1=O)NC(=O)[C@H](CC(=O)O)NC(=O)[C@H](CO)NC(=O)[C@H](CC(=O)O)NC(=O)[C@H](CCC(N)=O)NC(=O)[C@H](CO)NC3=O)C(=O)N[C@@H](C(C)C)C(=O)N2 (stereo partly drawn) [fluorine-18 labelled]	–	nude mouse, U-87 MG xenograft, kidneys	intravenous, 2.5 h, together with: cyclo(RGDyK) co-injected	–	tissue uptake	1.94 ± 0.75 %ID/g
Cc1ccc(Nc2ccc3c(c2)C(c2ccccc2F)=NC(C)C(=O)N3)c(C)c1 (stereo not drawn)	shake flask	PBS	24 h, pH 7.4	–	solubility	1.38 µM (≈ 0.535 µg/mL)
C[N+](C)(C)CCOP(=O)([O-])OCCCCCCCCCCCCCCCCCCc1ccc(C2=C3C=CC=[N+]3[B-](F)(F)n3cccc32)cc1	–	octanol/water	48 h, pH 7.4, room temperature	–	logD	4.59
CC(C)C[C@@H]1NC(=O)[C@@H]2CSSC[C@@H](C(=O)NCC(N)=O)NC(=O)[C@H](Cc3ccccc3)NC(=O)CNC(=O)[C@H](CC(N)=O)NC(=O)[C@@H]3CCCN3C(=O)CNC(=O)[C@@H]3CSSC[C@H](NC(=O)[C@H](CO)NC(=O)[C@H]([C@@H](C)O)NC(=O)[C@@H]4CCCN4C(=O)[C@H](C)NC(=O)[C@H](Cc4c[nH]c5ccccc45)NC(=O)[C@H](CC(=O)O)NC(=O)CNC(=O)[C@H](CCCNC(=N)N)NC(=O)CNC(=O)[C@H](CCC(N)=O)NC(=O)[C@@H]4CCCN4C(=O)[C@@H](NC(=O)CNC(=O)c4ccc(F)cc4)CSSC[C@H](NC(=O)CNC(=O)[C@H](C)NC1=O)C(=O)N[C@@H](C(C)C)C(=O)N3)C(=O)N[C@@H](CO)C(=O)N[C@@H](CCC(N)=O)C(=O)N[C@@H](CC(=O)O)C(=O)N[C@@H](CO)C(=O)N[C@@H](CC(=O)O)C(=O)N2 [fluorine-18 labelled]	microPET imaging	nude mice, U-87 MG xenograft, tumour	intravenous, 4.44 MBq, 0.5 h	–	tumour uptake	2.6 ± 0.72 %ID/g
H-HGLASTLTRWAHYNALIRAFGGG-NH2 (C-amide)	RP-HPLC	rat serum	37 °C	–	time to onset of degradation	1 h
CC(C)c1nc(CN(C)C(=O)N[C@H](C(=O)N[C@@H](Cc2ccccc2)C[C@H](O)[C@H](Cc2ccccc2)NC(=O)OCc2cncs2)C(C)C)cs1	–	healthy human volunteers, plasma	oral, dose not given, together with: warfarin plus 2D regimen	–	AUC(0-24)	11700 ng·h/mL
CNC(=O)c1ccc(-c2cnn3ccc(C(=O)N(C)c4ccc(Cl)c(C(=O)OC)c4)cc23)cc1	–	Wistar rats, both sexes, plasma	oral, 50 mg/kg/day, day 1, 2-week toxicology study	–	AUC(0-8 h)	1.98 ng·h/mL
COc1ccc(S(=O)(=O)N2CCCCC2)cc1C	–	Opn4 knockout and wild-type mice	dose not given, rod/cone driven, low light	–	pupillary light reflex	no effect
CC[C@H](C)[C@H](NC(=O)[C@@H](N)CCCNC(=N)N)C(=O)N[C@H](C(=O)N1CCC[C@H]1C(=O)N[C@@H](C)C(N)=O)C(C)C	–	healthy volunteers, both sexes, plasma	intravenous infusion, 3.0 mg/kg, single ascending dose	–	Tmax	4 min
COC(=O)N[C@H](C(=O)N1CCC[C@H]1C(=O)Nc1ccc([C@@H]2CC[C@@H](c3ccc(NC(=O)[C@@H]4CCCN4C(=O)[C@@H](NC(=O)OC)C(C)C)cc3)N2c2ccc(C(C)(C)C)cc2)cc1)C(C)C	–	healthy human volunteers, plasma	oral, dose not given, warfarin interaction study	baseline: given without warfarin	AUC(0-24)	1210 ng·h/mL
Cc1nc(Nc2ncc(C(=O)Nc3c(C)cccc3Cl)s2)cc(N2CCN(CCO)CC2)n1	–	male C57BL/6 mouse wild type, plasma	oral, 10 mg/kg	–	terminal half-life	243 ± 146 min
Cc1ccc(Nc2nccc(N(C)c3ccc4c(C)n(C)nc4c3)n2)cc1S(N)(=O)=O	–	patients without gastric acid suppression, plasma	oral, 600 mg once daily, 24 h, with food, first steady state, geometric mean	–	Cmin	33500 ng/mL
CCCCCOc1ccc(-c2ccc(-c3ccc(C(=O)N[C@H]4C[C@@H](O)[C@@H](O)NC(=O)[C@@H]5[C@@H](O)[C@@H](C)CN5C(=O)[C@H]([C@@H](C)O)NC(=O)[C@H]([C@H](O)[C@@H](O)c5ccc(O)cc5)NC(=O)[C@@H]5C[C@@H](O)CN5C(=O)[C@H]([C@@H](C)O)NC4=O)cc3)cc2)cc1	–	adult patients	iv, dose not given, 2, during treatment	–	patients without hepatic or GI adverse events	78.8%
CC(=O)N[C@H](CCCCNC(=O)C(C)F)C(=O)N[C@@H](CS)C(=O)N[C@@H](CS)C(=O)N[C@@H](CCC(=O)O)C(=O)N[C@@H](Cc1c[nH]cn1)C(=O)N[C@H](Cc1ccccc1)C(=O)N[C@@H](CCCNC(=N)N)C(=O)N[C@@H](Cc1c[nH]c2ccccc12)C(=O)N[C@@H](CS)C(=O)N[C@@H](CCCNC(=N)N)C(=O)N1CCC[C@H]1C(=O)N[C@H](C(N)=O)C(C)C (stereo partly drawn) [fluorine-18 labelled]	–	C57BL/6 mice, male, B16-F10 tumour, pancreas	intravenous, 2 h	–	tissue uptake	0.18 ± 0.03 %ID/g
COc1ccc(-c2cc(=O)c3c(OC)c(OC)c(OC)cc3o2)cc1	–	C57BL/6 mouse, male, small intestine	oral, 1% w/w in diet, 6 weeks, orange peel extract diet	baseline: content in orange peel	tissue to peel content ratio	1.68%
CCCCCCCCCC[N+](C)(C)CCCCCCCCCC	in vitro-in vivo extrapolation	human	–	–	hepatic clearance	2.47 mL/h/g liver
CCCCCOc1ccc(-c2cc(-c3ccc(C(=O)N[C@H]4C[C@@H](O)[C@@H](O)NC(=O)[C@@H]5[C@@H](O)[C@@H](C)CN5C(=O)[C@H]([C@H](O)CC(N)=O)NC(=O)[C@H]([C@H](O)[C@@H](O)c5ccc(O)c(OS(=O)(=O)O)c5)NC(=O)[C@@H]5C[C@@H](O)CN5C(=O)[C@H]([C@@H](C)O)NC4=O)cc3)no2)cc1	–	human paediatric patients 2 to 5 years, plasma	intravenous, 4.5 mg/kg once daily, day 7, mean	–	weight-normalised steady-state clearance	0.333 mL/min/kg

Some of these lines once more:
Substance	assay	test system	conditions	how to read	measurement	result
CC[C@H](C)[C@H](NC(=O)[C@@H](N)CCCNC(=N)N)C(=O)N[C@H](C(=O)N1CCC[C@H]1C(=O)N[C@@H](C)C(N)=O)C(C)C	–	healthy volunteers, both sexes, plasma	intravenous infusion, 3.0 mg/kg, single ascending dose	–	Tmax	4 min
C[N+](C)(C)CCOP(=O)([O-])OCCCCCCCCCCCCCCCCCCc1ccc(C2=C3C=CC=[N+]3[B-](F)(F)n3cccc32)cc1	–	octanol/water	48 h, pH 7.4, room temperature	–	logD	4.59
CSCC[C@@H]1NC(=O)[C@H](CC(=O)O)NC(=O)CNC(=O)[C@H](CCCNC(=N)N)NC(=O)[C@H](C)NC(=O)[C@H](CCC(=O)O)NC(=O)[C@H](CCCNC(=N)N)NC(=O)[C@@H]2CSSC[C@@H]3NC(=O)[C@H](CO)NC(=O)[C@H]([C@@H](C)O)NC(=O)[C@@H]4CCCN4C(=O)[C@H](C)NC(=O)[C@H](Cc4c[nH]c5ccccc45)NC(=O)[C@H](CC(=O)O)NC(=O)CNC(=O)[C@H](CCCNC(=N)N)NC(=O)CNC(=O)[C@H](CCC(N)=O)NC(=O)[C@@H]4CCCN4C(=O)[C@@H](NC(=O)CNC(=O)C(C)F)CSSC[C@H](NC(=O)CNC(=O)[C@H](C)NC(=O)[C@H](CC(C)C)NC(=O)[C@H](CSSC[C@@H](C(=O)NCC(N)=O)NC(=O)[C@H]([C@@H](C)O)NC(=O)[C@H](CCCNC(=N)N)NC(=O)[C@@H]4CCCN4C1=O)NC(=O)[C@H](CC(=O)O)NC(=O)[C@H](CO)NC(=O)[C@H](CC(=O)O)NC(=O)[C@H](CCC(N)=O)NC(=O)[C@H](CO)NC3=O)C(=O)N[C@@H](C(C)C)C(=O)N2 (stereo partly drawn) [fluorine-18 labelled]	–	nude mouse, U-87 MG xenograft, kidneys	intravenous, 2.5 h, together with: cyclo(RGDyK) co-injected	–	tissue uptake	1.94 ± 0.75 %ID/g
